Measurements collected from several papers.
Each numbered part is a random draw from the data of one study; scales do not carry over between parts. Changes are numbered by the printed parent chain.
Chain of UniProt O24409 (whole entry, looked up): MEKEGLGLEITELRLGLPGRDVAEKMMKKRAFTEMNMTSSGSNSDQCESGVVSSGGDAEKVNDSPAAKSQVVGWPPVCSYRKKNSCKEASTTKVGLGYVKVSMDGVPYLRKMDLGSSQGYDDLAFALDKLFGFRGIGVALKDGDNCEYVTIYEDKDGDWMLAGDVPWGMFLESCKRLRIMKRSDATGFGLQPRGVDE
Chain of UniProt Q9C8N7 (whole entry, looked up): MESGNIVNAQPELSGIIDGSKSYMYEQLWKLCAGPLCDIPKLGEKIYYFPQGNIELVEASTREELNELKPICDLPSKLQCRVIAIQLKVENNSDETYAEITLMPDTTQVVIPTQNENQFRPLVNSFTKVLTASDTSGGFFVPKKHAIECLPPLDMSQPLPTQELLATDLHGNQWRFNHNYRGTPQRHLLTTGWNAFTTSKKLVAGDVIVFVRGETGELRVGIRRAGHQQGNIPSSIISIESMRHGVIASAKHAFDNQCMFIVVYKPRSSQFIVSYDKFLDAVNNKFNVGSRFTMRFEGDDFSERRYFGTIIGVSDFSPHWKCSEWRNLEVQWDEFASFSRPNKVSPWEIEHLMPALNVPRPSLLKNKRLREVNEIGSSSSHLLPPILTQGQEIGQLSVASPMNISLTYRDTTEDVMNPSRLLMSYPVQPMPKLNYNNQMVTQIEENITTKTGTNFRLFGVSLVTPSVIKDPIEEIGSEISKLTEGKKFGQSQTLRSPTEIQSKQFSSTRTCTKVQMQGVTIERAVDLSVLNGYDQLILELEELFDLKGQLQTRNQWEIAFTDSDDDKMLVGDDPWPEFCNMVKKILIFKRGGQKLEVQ
Chain of UniProt Q8L7G0 (whole entry, looked up): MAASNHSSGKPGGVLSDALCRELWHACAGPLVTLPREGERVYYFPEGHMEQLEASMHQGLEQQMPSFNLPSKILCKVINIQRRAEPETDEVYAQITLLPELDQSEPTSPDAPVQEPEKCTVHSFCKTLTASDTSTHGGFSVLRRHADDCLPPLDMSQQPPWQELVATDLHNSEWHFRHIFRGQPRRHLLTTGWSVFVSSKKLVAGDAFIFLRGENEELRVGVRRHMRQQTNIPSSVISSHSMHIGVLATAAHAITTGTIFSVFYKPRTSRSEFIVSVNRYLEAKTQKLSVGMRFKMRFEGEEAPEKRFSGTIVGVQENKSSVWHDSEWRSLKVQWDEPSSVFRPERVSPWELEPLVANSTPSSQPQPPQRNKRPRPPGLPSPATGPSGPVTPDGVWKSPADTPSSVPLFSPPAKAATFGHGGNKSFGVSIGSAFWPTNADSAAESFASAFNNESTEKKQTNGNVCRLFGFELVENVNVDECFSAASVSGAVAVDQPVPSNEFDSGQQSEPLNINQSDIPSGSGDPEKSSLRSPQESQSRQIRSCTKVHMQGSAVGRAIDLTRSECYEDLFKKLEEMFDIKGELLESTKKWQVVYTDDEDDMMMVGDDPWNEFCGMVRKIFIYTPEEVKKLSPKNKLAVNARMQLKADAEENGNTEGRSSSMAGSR
Chain of UniProt Q9XFM0 (whole entry, looked up): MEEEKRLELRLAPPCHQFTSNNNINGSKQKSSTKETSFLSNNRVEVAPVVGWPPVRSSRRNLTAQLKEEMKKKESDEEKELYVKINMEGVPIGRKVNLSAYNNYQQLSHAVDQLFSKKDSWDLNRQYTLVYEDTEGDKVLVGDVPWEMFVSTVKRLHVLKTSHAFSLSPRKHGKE

Study 1
Target: ABI1, truncated, D143A, DHFR fusion (Arabidopsis thaliana)
Method: DHFR PCA, deep sequencing
Sample: yeast
Setting: methotrexate growth selection, single substitutions
With: (+)-ABA 710 µM
Baseline: wild-type fitted maximum
Direction: higher = stronger binding
Starting sequence: PYL1, truncated, DHFR fusion (Arabidopsis thaliana); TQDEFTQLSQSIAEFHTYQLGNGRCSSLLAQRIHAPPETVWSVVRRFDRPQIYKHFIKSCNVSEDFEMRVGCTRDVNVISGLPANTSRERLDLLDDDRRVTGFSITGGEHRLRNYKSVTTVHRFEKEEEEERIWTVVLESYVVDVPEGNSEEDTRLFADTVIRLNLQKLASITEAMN; partner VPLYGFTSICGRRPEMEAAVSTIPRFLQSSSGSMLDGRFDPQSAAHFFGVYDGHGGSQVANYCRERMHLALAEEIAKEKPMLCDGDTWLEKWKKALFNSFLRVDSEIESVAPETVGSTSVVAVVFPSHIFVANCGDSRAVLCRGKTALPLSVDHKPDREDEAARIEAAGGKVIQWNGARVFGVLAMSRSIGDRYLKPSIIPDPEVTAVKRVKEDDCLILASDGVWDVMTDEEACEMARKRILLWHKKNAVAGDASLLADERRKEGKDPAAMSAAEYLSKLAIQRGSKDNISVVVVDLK
`T17Y`: “relative binding score” 100%.
Under “relative binding score”, `W41A` is recorded as -8.18%.
`T173Q` — result for “relative binding score”: 68.2%.
`V76A`: “relative binding score” 72.5%.
For `T106A`, “relative binding score” read 89.5%.
`H55D`: “relative binding score” 104%.
`E128D` — result for “relative binding score”: 111%.
`I12A` — result for “relative binding score”: 75.2%.
Under “relative binding score”, `Y115C` is recorded as 15.8%.
`F157W`: “relative binding score” 38.9%.
For `Y141M`, “relative binding score” read 46%.
`V43A` — result for “relative binding score”: 88%.
`D95A` — result for “relative binding score”: 74.1%.
For `R49V`, “relative binding score” read 89.9%.
`M68S`: “relative binding score” 88.1%.
`T119M` — result for “relative binding score”: 101%.
For `R111H`, “relative binding score” read 70.1%.
For `R155K`, “relative binding score” read 99.5%.
`T86C`: “relative binding score” 103%.
`F124Q`: “relative binding score” 107%.
`F66D`: “relative binding score” 96.1%.
`W134F`: “relative binding score” 110%.
For `A35R`, “relative binding score” read 65%.
`T160S` — result for “relative binding score”: 91.9%.

Study 2
Target: RNA binding protein fox-1 homolog 2, RRM domain, GST-SBP tag (RBFOX2, Homo sapiens, UniProt O43251-10, residues 100-194)
Method: RNA Bind-n-Seq
Form: RNA
Sample: in vitro
Concentration: 365 nM
Setting: natural RNA segment, single round, ends assumed
Baseline: no-protein control
Direction: higher = stronger binding
Constant ends, left off below: GGGAGUUCUACAGUCCGACGAUC … UGGAAUUCUCGGGUGCCAA
Residues (chain): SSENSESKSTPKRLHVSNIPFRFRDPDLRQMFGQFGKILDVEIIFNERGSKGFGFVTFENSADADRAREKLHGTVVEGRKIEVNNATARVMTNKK
For `CAUUUUCUACCUGGCCCUAUCGCUGAGAGCCCCUCCCCAUGGCUCACUGAGGAGCACUCAGCCAGCAGUUCUCUAUCCUUAUCAGCCACAGAAUGCUUCUCACUGCCCGA`, “RBNS enrichment (R)” read 0.937.
Under “RBNS enrichment (R)”, `AGAAGUGUUAACUGUUGUUGGCAGUGUAAUAUAAAACUACCAUCUACAGCCACCAAAGGAAAGCAUCUGCAUUAAAAGGAAGAAAGGAAGGAAGGAAGAAAAGAAGGAAG` is recorded as 1.22.
For `AUACCAUGGGUGCUGUGACACUAACAGUCAUUGAGAGGUGGGAGGAAGUCCCUUUUCCUUGGACUGGUAUCUUUUCAACUAUUGUUUUAUCCUGUCUUUGGGGGCAAUGU`, “RBNS enrichment (R)” read 0.451.
`CUGGCUCAGCAUAUACAAGUUAGCUUGCUUUAGGCAAGGGACCUUUCUUGUGAUGGACGUGCACUACGAAGUGAGAUGGAGUCCUGCUCCGUGCAGGAGGCCCUUCAUUA` — result for “RBNS enrichment (R)”: 0.284.
For `AUUCUAGCCCCACUAUGCGGGGGUGCUGUUGUCCUGCCUGUGUCUCAUCCCCAGCUGCCUAAGCUAGGGACACUCAAGUGCUUCCUUCCUUGCCCCAUCUUCCUCCCAAC`, “RBNS enrichment (R)” read 0.254.
For `AAAGAAUAGUGUUUGUCCCUAUGGUAGCCUCAGUCUCUUUAUCACUAACUUGGAUUGAAAUGAGUGAGGCCAACUCACAUUCCCAUCAAACACUCUUCCAAGGAAAAGCA`, “RBNS enrichment (R)” read 0.743.
For `GCAACUUGUAUGUUGAAAUGAUUGUAUGUUCUGUAUGAAAUGUUCCACUUGAGAUUUUUACAAAAGCACCUGUAUUAUCUCUUUUAAAAAUUAAACUUUUUUUUUGCUUU`, “RBNS enrichment (R)” read 1.02.
`GAGAGCUCGUGUUUACUAAGCAAGCUUUUGUGUUUAUCUUCCUUAUUUUUACUGAACAUCUUCAGUACCUGGGUAAUGGAAACCCACUCUUUUUUCAUUGUAAUGACUUU`: “RBNS enrichment (R)” 0.598.
For `CCAAAGAACCUGGCAAAAGAAGUGGCCAUGUGAAGAGGGACACUCAGGACACUUUACGGGAUCAAAGUGGGUCUACACCAGUGCUGCUUCCUGAAUGUUUGUGUGUGAAC`, “RBNS enrichment (R)” read 2.41.
For `UUAUCAUAGAAUUUUUUAAUGAAACUAAAUUCAAUUGAAAUAAAUGAUAGUUUUCAUCUCCAUUCAGGAUCUGUAUUUCUGUGCUUCAAGGGAUUCCUGACUCAUGUUCU`, “RBNS enrichment (R)” read 0.289.
Under “RBNS enrichment (R)”, `ACAAAUUAGAGGGAAAUUUGUCCUGUUAACCACAUGCUAUUAUUCCUUCAUUCAGGGUUACUGACCUACUGUCCAGGGCUUGAUAGGUAAGGCAGCUUGUUGGCCCUUGU` is recorded as 0.527.
`AUGUUCUGUUUUUAUAACCUACCAAAAGGAAACUAGAGGCUUCUUGGUGAAGAGCAUUUUUGUGAAGUGGGUUCUGCAAGGAGCCUAUAAAGCCAAGGGUGGUGUCCAUU`: “RBNS enrichment (R)” 0.338.

Study 3
Target: MAFF, bZIP domain (human)
Method: DHFR protein complementation
Sample: yeast
Setting: single substitutions, most at no-binding floor
Baseline: wild-type JUN-FOS pair
Direction: higher = stronger binding
Starting sequence: JUN, bZIP domain (human); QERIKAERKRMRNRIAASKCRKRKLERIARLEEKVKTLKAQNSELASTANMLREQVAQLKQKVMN; partner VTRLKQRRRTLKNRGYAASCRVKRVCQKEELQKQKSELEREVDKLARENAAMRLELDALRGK
With `Q55L` the binding fitness was -1.23 natural log.
`S43I` gave a binding fitness of -1.42 natural log.
`A29K` has a binding fitness of -1.5 natural log.
The binding fitness of `L45R` is reported as -1.53 natural log.
For `T48L`, the binding fitness was -1.41 natural log.
The binding fitness of `R30L` is reported as -1.35 natural log.
`I28D` gave a binding fitness of -1.33 natural log.
`Q55W` has a binding fitness of -1.58 natural log.
The binding fitness of `N42W` is reported as -1.26 natural log.
For `S47W`, the binding fitness was -1.27 natural log.
`K39A` has a binding fitness of -1.54 natural log.
With `A57N` the binding fitness was -1.42 natural log.
`A49R` gave a binding fitness of -1.42 natural log.
With `A40D` the binding fitness was -1.56 natural log.
`S47D` gave a binding fitness of -1.41 natural log.
For `L52M`, the binding fitness was -1.32 natural log.

Study 4
Target: CCNE2, cyclin fold, Cln2 fusion (human)
Method: yeast growth competition, sequencing
Sample: yeast
Setting: weak parent motif
Baseline: not given
Direction: higher = stronger binding
Starting sequence: MASTL docking peptide (human); PMIAKNLMCELDE; partner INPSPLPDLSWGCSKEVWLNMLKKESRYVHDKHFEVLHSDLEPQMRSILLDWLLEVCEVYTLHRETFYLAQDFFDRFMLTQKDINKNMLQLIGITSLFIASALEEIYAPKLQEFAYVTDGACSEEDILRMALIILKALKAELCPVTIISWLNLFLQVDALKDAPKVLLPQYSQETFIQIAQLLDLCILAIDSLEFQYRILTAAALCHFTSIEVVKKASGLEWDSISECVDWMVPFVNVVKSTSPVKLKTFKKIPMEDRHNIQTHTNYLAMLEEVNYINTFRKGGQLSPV
Under “normalised enrichment score”, `N6K` is recorded as 0.182.
`C9I` — result for “normalised enrichment score”: -0.48.
Under “normalised enrichment score”, `N6F` is recorded as -0.214.
For `L7M`, “normalised enrichment score” read -0.51.
`I3H` — result for “normalised enrichment score”: -0.299.
Under “normalised enrichment score”, `N6G` is recorded as -0.394.
`K5T`: “normalised enrichment score” -0.154.
Under “normalised enrichment score”, `A4V` is recorded as -0.159.
`L11M`: “normalised enrichment score” -0.659.
For `A4L`, “normalised enrichment score” read -0.0468.
Under “normalised enrichment score”, `M2D` is recorded as -0.0365.
`A4P`: “normalised enrichment score” 0.22.
`N6Y`: “normalised enrichment score” -0.00503.
For `M8L`, “normalised enrichment score” read -0.0146.
Under “normalised enrichment score”, `A4S` is recorded as -0.107.
`K5M`: “normalised enrichment score” -0.311.
`A4K`: “normalised enrichment score” 0.778.
`M2N`: “normalised enrichment score” -0.0481.
`L7E` — result for “normalised enrichment score”: 0.421.
`L11F` — result for “normalised enrichment score”: -0.474.
`E10Y`: “normalised enrichment score” 0.304.
For `K5G`, “normalised enrichment score” read -0.223.
For `M8W`, “normalised enrichment score” read -0.00011.
For `K5R`, “normalised enrichment score” read 0.285.
Under “normalised enrichment score”, `M8G` is recorded as -0.145.

Study 5
Target: Sal-like protein 4, full length isoform B (SALL4, Homo sapiens, UniProt Q9UJQ4-2, residues 1-616)
Method: universal PBM
Form: double-stranded DNA, one strand shown
Sample: in vitro
Concentration: not given
Setting: 8-mer, flanks averaged, mean of replicates
Direction: higher = stronger binding
With `CATCTTAG` the E-score was 0.0183.
For `GTCGTAAA`, the E-score was 0.102.
`GTCGGTAA` gave an E-score of -0.058.
With `AACCGCGA` the E-score was -0.0736.
`CTCCGGCC` gave an E-score of -0.327.
For `CAATCACC`, the E-score was -0.103.
`AGCAAATC` gave an E-score of 0.116.
For `ACCGACTG`, the E-score was -0.328.
`CACTTCCA` has an E-score of -0.0381.
For `AGTACTGA`, the E-score was 0.104.
`CGATTTGA` gave an E-score of 0.0669.
With `ATTCAGTC` the E-score was -0.0101.
With `ACTGGCAT` the E-score was -0.138.
For `ACCTATCA`, the E-score was 0.0772.
With `CAAGCAGA` the E-score was 0.0177.
With `GCACCGTA` the E-score was -0.112.
The E-score of `TAAAAGCA` is reported as 0.149.
The E-score of `GTAGATAC` is reported as 0.174.

Study 6
Sequence: B1 (IAA17)
Method: two-hybrid
Direction: higher = firmer interaction
B1: IAA17 (Arabidopsis thaliana, UniProt P93830); chain MMGSVELNLRETELCLGLPGGDTVAPVTGNKRGFSETVDLKLNLNNEPANKEGSTTHDVVTFDSKEKSACPKDPAKPPAKAQVVGWPPVRSYRKNVMVSCQKSSGGPEAAAFVKVSMDGAPYLRKIDLRMYKSYDELSNALSNMFSSFTMGKHGGEEGMIDFMNERKLMDLVNSWDYVPSYEDKDGDWMLVGDVPWPMFVDTCKRLRLMKGSDAIGLAPRAMEKCKSRA
It gave 2 for positive tests (IAA19 (Arabidopsis thaliana, UniProt O24409); baseline: out of 2 tests).
For IAA28 (Arabidopsis thaliana, UniProt Q9XFM0); baseline: out of 4 tests: positive tests read 3.
For ARF22 498-598 (Arabidopsis thaliana, UniProt Q9C8N7); baseline: out of 2 tests: positive tests read 1.
For ARF1 538-665 (Arabidopsis thaliana, UniProt Q8L7G0); baseline: out of 4 tests: positive tests read 0.

Repeated from above (study 4):
Under “normalised enrichment score”, `N6K` is recorded as 0.182.
For `A4L`, “normalised enrichment score” read -0.0468.
`C9I` — result for “normalised enrichment score”: -0.48.
For `M8L`, “normalised enrichment score” read -0.0146.
`E10Y`: “normalised enrichment score” 0.304.
Under “normalised enrichment score”, `A4S` is recorded as -0.107.
`M2N`: “normalised enrichment score” -0.0481.
`L11M`: “normalised enrichment score” -0.659.
